Published values pooled from the literature.
Lines come from different studies, so protocols differ.

Compound | test | test system | conditions | Cmax
CCOc1c([C@H](C)n2nc(C)c3c(N)ncnc32)cc(Cl)c(F)c1[C@@H]1CNC(=O)C1 | – | human patients, plasma | oral, 15 mg once daily, cycle 1 day 15, monotherapy, geometric mean | 1290 nM
CC(C)[C@H](N)C(=O)NCCCS(=O)(=O)O | – | human, plasma | oral, 256.5 mg twice daily days 2-7, day 7, fed, capsule | 7000 ng/mL
CO[C@H]1C[C@@H]2CC[C@@H](C)[C@@](O)(O2)C(=O)C(=O)N2CCCC[C@H]2C(=O)O[C@H]([C@H](C)C[C@@H]2CC[C@@H](OC(=O)NCCOCCOCCOCCOCCOCCOCCOCCOCCC(=O)N3CCc4cc(Cn5nc(-c6ccc7oc(N)nc7c6)c6c(N)ncnc65)ccc4C3)[C@H](OC)C2)C[C@@H](O)[C@H](C)/C=C(\C)[C@@H](O)[C@@H](OC)C(=O)[C@H](C)C[C@H](C)/C=C/C=C/C=C/1C | – | human, plasma | intravenous, 1.6 mg, cycle 1 day 1, arithmetic mean | 38.3 ng/mL
COc1ncc(-c2nc3c(n2C(C)C)[C@H](c2ccc(Cl)cc2)N(c2cc(Cl)cn(C)c2=O)C3=O)c(OC)n1 | LC-MS/MS | human, plasma | oral, 100 mg, cycle 2 day 1, high-dose arm | 779 ng/mL
Cl.[2H]C([2H])([2H])CC(=O)c1cnc(NC(=O)C2CC2)cc1Nc1cccc(-c2ncn(C([2H])([2H])[2H])n2)c1OC | – | human, fed, multiple dose | oral, 30 mg twice daily, tablet, day 14, geometric mean | 283 ng/mL
C=CCn1c(=O)c2cnc(Nc3ccc(N4CCN(C)CC4)cc3)nc2n1-c1cccc(C(C)(C)O)n1 | – | human, plasma | oral, 125 mg twice daily, cycle 1 day 17, geometric mean, added: durvalumab 1500 mg intravenous | 606 nM
CN1C(=O)[C@@H](NC(=O)c2nnc(Cc3ccccc3)[nH]2)COc2cccnc21 | – | healthy human, fasted, plasma | oral, 200 mg single dose, geometric mean | 3270 ng/mL
O=C(COc1ccc(Cl)cc1)NC12CC(c3nnc([C@H]4C[C@@H](OC(F)(F)F)C4)o3)(C1)C2 | – | healthy human volunteers fasted, plasma | oral, 800 mg single dose, arithmetic mean | 7610 nM
O=C(O)CCC(=O)O.[2H]C([2H])([2H])Oc1cc(C)c2[nH]ccc2c1CN1CC[C@@H](C2CC2)C[C@H]1c1ccc(C(=O)O)cc1 | LC-MS/MS, geometric mean | human, plasma | 600 mg, single dose, fasting | 6410 ng/mL
CCn1cc(C(=O)N2CCOCC2)c(=O)c2cc(NC3Cc4ccccc4C3)cnc21 | – | human, fed | oral suspension, 2000 mg single dose, arithmetic mean | 3680 ng/mL

Repeated from above:
Compound | test | test system | conditions | Cmax
Cl.[2H]C([2H])([2H])CC(=O)c1cnc(NC(=O)C2CC2)cc1Nc1cccc(-c2ncn(C([2H])([2H])[2H])n2)c1OC | – | human, fed, multiple dose | oral, 30 mg twice daily, tablet, day 14, geometric mean | 283 ng/mL
